# Measured values collected from several papers.
# Lines come from different studies, so protocols differ. Values joined by “and” are separate records of one study, mostly repeats; a detail may differ. Numbers after ± are the reported error.
# Uncharacterized protein: Uncharacterized protein (Trypanosoma brucei brucei, UniProt Q386Q8)
# NTSR1: Neurotensin receptor type 1 (NTSR1, Homo sapiens, UniProt P30989)
# Sequence of UniProt P30989 (whole entry, looked up): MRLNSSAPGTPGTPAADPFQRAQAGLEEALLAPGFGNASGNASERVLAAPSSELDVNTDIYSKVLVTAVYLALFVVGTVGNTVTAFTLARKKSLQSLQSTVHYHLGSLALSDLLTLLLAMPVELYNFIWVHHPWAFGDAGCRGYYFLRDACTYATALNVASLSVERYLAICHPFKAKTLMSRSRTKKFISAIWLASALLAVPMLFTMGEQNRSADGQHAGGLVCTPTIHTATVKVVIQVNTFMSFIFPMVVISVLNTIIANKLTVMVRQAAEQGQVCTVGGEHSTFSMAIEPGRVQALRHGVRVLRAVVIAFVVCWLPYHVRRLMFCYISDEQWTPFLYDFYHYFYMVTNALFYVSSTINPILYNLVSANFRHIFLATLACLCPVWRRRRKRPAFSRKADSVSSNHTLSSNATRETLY
# Gria1: Glutamate receptor 1 (Gria1, Rattus norvegicus, UniProt P19490)
# Sequence of UniProt P19490 (whole entry, looked up): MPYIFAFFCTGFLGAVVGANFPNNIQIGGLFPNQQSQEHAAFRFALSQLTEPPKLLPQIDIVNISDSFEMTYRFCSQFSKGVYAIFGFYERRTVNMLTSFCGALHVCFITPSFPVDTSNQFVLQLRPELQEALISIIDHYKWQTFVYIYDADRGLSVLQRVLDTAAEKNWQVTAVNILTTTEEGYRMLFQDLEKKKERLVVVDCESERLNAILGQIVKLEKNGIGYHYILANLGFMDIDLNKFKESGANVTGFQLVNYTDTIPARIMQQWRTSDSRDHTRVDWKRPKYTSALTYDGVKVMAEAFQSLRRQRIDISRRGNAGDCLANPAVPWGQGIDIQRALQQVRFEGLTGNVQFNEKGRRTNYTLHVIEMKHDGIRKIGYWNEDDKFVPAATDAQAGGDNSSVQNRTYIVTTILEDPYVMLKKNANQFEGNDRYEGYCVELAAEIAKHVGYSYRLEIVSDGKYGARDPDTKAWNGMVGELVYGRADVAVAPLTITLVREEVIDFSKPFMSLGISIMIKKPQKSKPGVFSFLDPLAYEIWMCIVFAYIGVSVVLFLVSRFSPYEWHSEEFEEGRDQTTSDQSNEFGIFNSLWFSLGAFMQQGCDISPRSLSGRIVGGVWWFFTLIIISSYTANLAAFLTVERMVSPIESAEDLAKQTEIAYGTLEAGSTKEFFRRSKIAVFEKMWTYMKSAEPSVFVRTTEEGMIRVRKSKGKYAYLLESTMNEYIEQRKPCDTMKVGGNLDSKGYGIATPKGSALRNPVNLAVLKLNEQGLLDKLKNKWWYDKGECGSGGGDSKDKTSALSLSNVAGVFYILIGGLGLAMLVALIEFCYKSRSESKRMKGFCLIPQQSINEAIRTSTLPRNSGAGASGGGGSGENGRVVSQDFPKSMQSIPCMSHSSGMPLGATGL
# SLC7A5: Large neutral amino acids transporter small subunit 1 (SLC7A5, Homo sapiens, UniProt Q01650)
# Sequence of UniProt Q01650 (whole entry, looked up): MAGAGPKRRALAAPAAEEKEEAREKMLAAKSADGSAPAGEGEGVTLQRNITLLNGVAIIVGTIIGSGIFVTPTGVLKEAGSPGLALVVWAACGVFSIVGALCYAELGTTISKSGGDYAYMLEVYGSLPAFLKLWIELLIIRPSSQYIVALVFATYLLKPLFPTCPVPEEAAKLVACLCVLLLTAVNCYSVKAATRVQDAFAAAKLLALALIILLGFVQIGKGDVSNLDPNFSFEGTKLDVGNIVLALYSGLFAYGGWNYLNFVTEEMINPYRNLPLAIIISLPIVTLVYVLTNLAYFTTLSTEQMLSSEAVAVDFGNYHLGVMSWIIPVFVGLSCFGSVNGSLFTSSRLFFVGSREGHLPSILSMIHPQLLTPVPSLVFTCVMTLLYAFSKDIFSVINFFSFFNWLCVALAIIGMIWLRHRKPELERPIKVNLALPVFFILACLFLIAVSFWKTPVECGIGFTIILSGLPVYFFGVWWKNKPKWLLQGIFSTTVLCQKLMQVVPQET
# ADRB2: Beta-2 adrenergic receptor (ADRB2, Homo sapiens, UniProt P07550)
# ppa: Inorganic pyrophosphatase (ppa, Escherichia coli, UniProt P0A7A9)
# Sequence of UniProt P0A7A9 (whole entry, looked up): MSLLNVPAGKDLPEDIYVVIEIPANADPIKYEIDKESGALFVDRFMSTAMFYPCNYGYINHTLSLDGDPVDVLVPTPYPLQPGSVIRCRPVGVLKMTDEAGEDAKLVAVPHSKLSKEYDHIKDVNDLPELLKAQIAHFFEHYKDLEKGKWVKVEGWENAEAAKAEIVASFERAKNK
# DNA dC->dU-editing enzyme APOBEC-3B C-terminal domain: DNA dC->dU-editing enzyme APOBEC-3B, C-terminal domain (Homo sapiens, UniProt Q9UH17)
# Sequence of UniProt Q9UH17 (whole entry, looked up): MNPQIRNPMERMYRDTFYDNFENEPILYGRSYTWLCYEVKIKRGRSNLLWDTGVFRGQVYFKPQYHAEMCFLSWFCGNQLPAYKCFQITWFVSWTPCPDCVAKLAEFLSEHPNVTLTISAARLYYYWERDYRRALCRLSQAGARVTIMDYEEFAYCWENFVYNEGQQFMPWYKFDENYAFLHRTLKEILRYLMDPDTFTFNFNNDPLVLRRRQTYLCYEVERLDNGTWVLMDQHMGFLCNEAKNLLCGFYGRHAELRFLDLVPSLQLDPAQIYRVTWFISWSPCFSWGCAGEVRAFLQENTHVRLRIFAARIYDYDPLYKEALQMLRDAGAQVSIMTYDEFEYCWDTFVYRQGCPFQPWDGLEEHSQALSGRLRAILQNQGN
# MAOB: Amine oxidase [flavin-containing] B (MAOB, Homo sapiens, UniProt P27338)
# NNMT: Nicotinamide N-methyltransferase (NNMT, Homo sapiens, UniProt P40261)
# Sequence of UniProt P40261 (whole entry, looked up): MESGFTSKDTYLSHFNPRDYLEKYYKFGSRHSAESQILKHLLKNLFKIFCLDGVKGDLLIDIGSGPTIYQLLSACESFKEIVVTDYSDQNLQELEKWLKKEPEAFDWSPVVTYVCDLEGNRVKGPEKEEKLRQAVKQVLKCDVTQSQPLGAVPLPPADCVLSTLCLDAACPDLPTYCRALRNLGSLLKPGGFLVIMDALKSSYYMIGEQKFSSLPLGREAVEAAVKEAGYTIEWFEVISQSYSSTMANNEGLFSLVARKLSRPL
# Sequence of UniProt P43403 (whole entry, looked up): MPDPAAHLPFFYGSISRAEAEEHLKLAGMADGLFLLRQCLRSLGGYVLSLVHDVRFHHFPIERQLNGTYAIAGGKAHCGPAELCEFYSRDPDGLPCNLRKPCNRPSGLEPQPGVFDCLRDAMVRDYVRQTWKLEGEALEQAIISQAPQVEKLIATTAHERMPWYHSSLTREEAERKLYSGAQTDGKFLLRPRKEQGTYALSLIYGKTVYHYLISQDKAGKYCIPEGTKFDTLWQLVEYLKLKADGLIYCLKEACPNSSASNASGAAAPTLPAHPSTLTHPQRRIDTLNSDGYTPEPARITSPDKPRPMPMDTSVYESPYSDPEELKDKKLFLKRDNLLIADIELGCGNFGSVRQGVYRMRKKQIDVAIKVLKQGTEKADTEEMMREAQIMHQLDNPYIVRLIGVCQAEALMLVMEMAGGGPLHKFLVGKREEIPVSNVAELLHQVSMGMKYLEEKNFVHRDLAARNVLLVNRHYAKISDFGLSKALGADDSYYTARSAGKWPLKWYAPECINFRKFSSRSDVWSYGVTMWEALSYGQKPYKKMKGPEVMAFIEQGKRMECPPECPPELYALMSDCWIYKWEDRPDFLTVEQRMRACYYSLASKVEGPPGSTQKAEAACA
# Sequence of UniProt P09391 (whole entry, looked up): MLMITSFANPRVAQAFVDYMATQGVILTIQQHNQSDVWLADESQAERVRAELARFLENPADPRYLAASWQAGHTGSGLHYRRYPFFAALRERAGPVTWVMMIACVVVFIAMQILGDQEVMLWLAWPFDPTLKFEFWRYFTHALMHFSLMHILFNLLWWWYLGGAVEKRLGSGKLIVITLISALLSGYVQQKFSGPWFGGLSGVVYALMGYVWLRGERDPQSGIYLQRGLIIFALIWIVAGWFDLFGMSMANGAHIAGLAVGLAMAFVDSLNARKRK
# Sequence of UniProt P51955 (whole entry, looked up): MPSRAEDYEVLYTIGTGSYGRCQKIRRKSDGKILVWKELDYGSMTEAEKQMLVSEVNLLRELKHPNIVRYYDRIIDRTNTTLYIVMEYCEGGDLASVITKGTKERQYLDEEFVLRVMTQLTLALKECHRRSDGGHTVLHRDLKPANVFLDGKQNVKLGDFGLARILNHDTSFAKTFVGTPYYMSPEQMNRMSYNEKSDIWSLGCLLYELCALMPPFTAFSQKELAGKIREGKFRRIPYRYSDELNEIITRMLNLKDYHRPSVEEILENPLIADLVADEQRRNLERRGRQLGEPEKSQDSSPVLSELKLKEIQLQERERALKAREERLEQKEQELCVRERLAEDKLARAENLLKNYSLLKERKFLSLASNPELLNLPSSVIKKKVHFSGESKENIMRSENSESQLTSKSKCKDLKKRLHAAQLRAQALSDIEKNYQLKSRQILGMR
# Sequence of UniProt Q13619 (whole entry, looked up): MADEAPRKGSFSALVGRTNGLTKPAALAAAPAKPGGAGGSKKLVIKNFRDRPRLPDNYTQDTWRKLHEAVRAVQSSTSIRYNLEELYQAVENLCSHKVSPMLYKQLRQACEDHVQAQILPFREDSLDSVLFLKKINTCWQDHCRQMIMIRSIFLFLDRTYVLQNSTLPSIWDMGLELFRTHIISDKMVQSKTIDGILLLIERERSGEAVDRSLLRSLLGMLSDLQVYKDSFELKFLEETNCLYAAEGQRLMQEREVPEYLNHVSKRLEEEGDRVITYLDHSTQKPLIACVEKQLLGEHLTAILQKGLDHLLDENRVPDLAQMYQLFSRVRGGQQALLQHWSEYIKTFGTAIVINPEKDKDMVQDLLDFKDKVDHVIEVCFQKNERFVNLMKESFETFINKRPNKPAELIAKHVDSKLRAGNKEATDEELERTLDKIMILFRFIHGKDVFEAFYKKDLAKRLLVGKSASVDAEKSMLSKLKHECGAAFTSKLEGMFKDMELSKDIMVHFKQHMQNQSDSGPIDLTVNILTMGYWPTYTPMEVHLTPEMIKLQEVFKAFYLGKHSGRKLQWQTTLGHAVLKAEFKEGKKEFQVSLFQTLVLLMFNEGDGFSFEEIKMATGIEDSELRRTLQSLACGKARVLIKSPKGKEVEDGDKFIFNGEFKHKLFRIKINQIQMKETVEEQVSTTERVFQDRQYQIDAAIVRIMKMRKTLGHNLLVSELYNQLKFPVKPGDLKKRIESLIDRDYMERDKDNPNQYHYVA
# Sequence of UniProt Q13951 (whole entry, looked up): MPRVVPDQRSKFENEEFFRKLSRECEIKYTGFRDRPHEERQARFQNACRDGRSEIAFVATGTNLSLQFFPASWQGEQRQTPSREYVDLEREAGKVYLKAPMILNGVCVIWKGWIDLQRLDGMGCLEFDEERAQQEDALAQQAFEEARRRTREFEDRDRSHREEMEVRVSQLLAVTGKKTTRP
Structure (SMILES),tested on,test,system,setting,how to read,measurement,value
C[N+](C)(CCCN1c2ccccc2CCc2ccc(Cl)cc21)Cc1ccc2ccccc2c1,Uncharacterized protein,"enzyme activity, inhibitor, coupled colorimetric",,together with: E. coli pyrophosphatase coupling,,IC50,40.6 µM
COC1CN([C@H]2CC[C@H]([C@@]3(C)Oc4c(Cl)cc(C(=O)NCc5c(SC)cc(C)[nH]c5=O)c(C)c4O3)CC2)C1,,"RNA-seq, item: GABARAPL1 mouse homolog","mouse, HT-1376 xenograft, whole blood",dose not given,reference: vehicle,log2 fold change,0.377
C=CC(=O)Nc1cccc(Cn2ncc3cnc(Nc4cnn(CCOC)c4)nc32)c1,ANKK1 human,"binding, KINOMEscan",,100 nM,lower = stronger binding,percent of control,100%
COc1ccc(C(=O)CC2(O)C(=O)Nc3c(Br)cc(C)cc32)cc1 (centres unmarked),Uncharacterized protein,"inhibitor, coupled colorimetric",Trypanosoma brucei,,,IC50,> 100 µM
Nc1ncc(-c2cc(-c3cnn(CC(F)(F)F)c3)ncc2F)nc1C(=O)NC1CNCC(F)C1 (centres unmarked),MKNK2,KINOMEscan,,1 µM,reference: control,remaining binding,7.7%
COc1ccccc1C1CCN(c2nc(C3(C(F)(F)F)CC3)nc3ccc(N(C)CCO)cc23)CC1,NTSR1,"G protein activation, antagonist, BRET",,,,IC50,0.628 µM
CNS(=O)(=O)Nc1nccc(Cc2c(C)c3ccc(Oc4ncccc4F)cc3oc2=O)c1F,EFM-19,cell viability,,7 days,,IC50,> 1 µM
O=C(O)Cc1cc2c(cc1C(=O)c1cccc(Cl)c1)OCO2,Gria1,"glutamate-evoked current, inhibitor, whole-cell patch clamp","HEK293T, homomeric receptor",,,IC50,4.27 µM
COc1ccc(OC)c(C2=Nn3c(nnc3-c3ccc(Cl)cc3)SC2)c1,Uncharacterized protein,"inhibitor, coupled colorimetric",Trypanosoma brucei,,,IC50,> 100 µM
N[C@@H](Cc1c[nH]c2ccc(OCc3ccccc3-c3ccco3)cc12)C(=O)O,SLC7A5,"transporter uptake, inhibitor, radiometric",,,,IC50,32.3 µM
Clc1ccc(Nc2nc(NC3CCCCC3)c3ccccc3n2)cc1Cl,ADRB2,"cAMP production, antagonist, GloSensor",,together with: isoproterenol 1 µM,,IC50,> 50 µM
CCN(CC)CC(=O)Nc1cccc(-n2cc(-c3ccc4ccc(-c5cn(-c6cccc(NC(=O)CN(CC)CC)c6)nn5)cc4c3)nn2)c1,"Tyrosine-protein kinase ZAP-70 (ZAP70, Homo sapiens, UniProt P43403)","enzyme activity, inhibitor",,,,IC50,> 10 µM
O=c1cc(-c2ccc(O)cc2)oc2c([C@@H]3OC[C@H](O)[C@H](O)[C@H]3O)c(O)c([C@@H]3O[C@H](CO)[C@@H](O)[C@H](O)[C@H]3O)c(O)c12,"Calcium/calmodulin-dependent protein kinase type II subunit delta (CAMK2D, Homo sapiens, UniProt Q13557)","binding, LanthaScreen Eu binding",,1 h,,IC50,3.53 µM
CN(C)c1cc(N)c2cc(Cl)ccc2n1,Uncharacterized protein,"enzyme activity, inhibitor, coupled colorimetric",,together with: E. coli pyrophosphatase coupling,,IC50,43.8 µM
C=C(NC(=O)c1csc(-c2nc3c(cc2O)-c2nc(cs2)C(=O)NC(C(C)O)C(=O)NC(=C(C)OC)c2nc(cs2)C(=O)NC2c4nc(cs4)C(=O)NC(COC(=O)c4c5c6c(cccc6n4O)COC(=O)C(OC4CC(C)(O)C(N(C)C)C(C)O4)C2OC5)c2nc-3cs2)n1)C(N)=O (centres unmarked),,,"cynomolgus monkey, female, plasma","intravenous infusion, 3 mg/kg, multiple doses, day 7",,AUC(0-inf),25.4 µg·h/mL
CNC(=O)C1CCCN(C(=O)C2CC3CCC2N3C(=O)[C@@H]2C[C@@H](O)CN2C(=O)NCc2cccc(Cl)c2F)C1 (mixture of isomers),"Cytochrome P450 2C9 (CYP2C9, Homo sapiens, UniProt P11712)",preincubation with NADPH,human,16.7 µM,reference: negative control,remaining activity,101% and 96.7% and 112%
O=C1/C(=N\c2ccc(Cl)cc2Br)c2ccccc2N1Cc1cccc(Cl)c1 (mixture of isomers),"Phosphatidylinositol 4,5-bisphosphate 3-kinase catalytic subunit delta isoform (PIK3CD, Homo sapiens, UniProt O00329)","enzyme activity, inhibitor, ADP detection",,,,IC50,0.0414 µM
Oc1ccc(C#Cc2cccc3c2C(c2ccc(O)cc2)(c2ccc(O)cc2)c2cc(O)ccc2-3)cc1,"3',5'-cyclic-AMP phosphodiesterase 4D (PDE4D, Homo sapiens, UniProt Q08499)","enzyme activity, inhibitor",,,,IC50,0.202 µM
O=C(CSc1nnc(-c2ccco2)c(-c2ccco2)n1)c1ccc(Br)cc1,ppa,"inhibitor, counter-screen, coupling enzyme alone",,,,IC50,> 30 µM
CCn1nc(Cl)c2c1-c1cnc(N)c(c1)O[C@H](C)c1cc(F)ccc1-c1nn(C)cc1C2,"Leukocyte tyrosine kinase receptor (LTK, Homo sapiens, UniProt P29376)","enzyme activity, inhibitor, radiometric",,,,IC50,0.009 µM
N[C@@H](Cc1c[nH]c2ccc(OCc3cccc(I)c3)cc12)C(=O)O,SLC7A5,"transporter uptake, inhibitor, radiometric",,,,IC50,15.8 µM
O=C(CCNC(=O)CNC(=O)CC(c1ccccc1)(c1ccccc1)c1ccccc1)NC[C@H]1CCCN(C(=O)c2ccc(F)cc2)C1,"Muscarinic acetylcholine receptor M3 (CHRM3, Homo sapiens, UniProt P20309)","ligand displacement, radioligand",,cell membranes,,IC50,> 30 µM
COc1ccccc1C1CCN(c2nc(C3(F)CC3)nc3c(Cl)cc(N(C)CCO)cc23)CC1,NTSR1,"G protein activation, antagonist, BRET",,,,IC50,1.87 µM
Cc1cnc(Nc2ccc3c(c2)CCN(C(=O)/C=C/CC(C)C)C3)nc1-c1cnn(C(C)C)c1,"Tyrosine-protein kinase JAK1 (JAK1, Homo sapiens, UniProt P23458)","enzyme activity, inhibitor, ADP detection",,,,IC50,0.00238 µM
COc1ccc(C(=O)CC2(O)C(=O)Nc3ccc(C)cc32)cc1OC (centres unmarked),ppa,"enzyme activity, inhibitor",,,,IC50,> 100 µM
CC(C)C[C@H](NC(=O)[C@@H](CCCCNC(=O)[C@@H](Cc1ccccc1)NC(=O)CCCCCNC(=O)CN1CCN(CC(=O)O)CCN(CC(=O)O)CCN(CC(=O)O)CC1)NC(=O)[C@H](Cc1ccc(O)cc1)NC(=O)[C@H](CO)NC(=O)[C@H](Cc1c[nH]c2ccccc12)NC(=O)[C@H](Cc1c[nH]cn1)NC(=O)[C@@H]1CCC(=O)N1)C(=O)N[C@@H](CCCNC(=N)N)C(=O)N1CCC[C@H]1C(=O)NCC(N)=O [indium-111 labelled],,,"female athymic nude mice, heart","intravenous, 0.037 MBq, 4 h",,tissue uptake,0.02 ± 0.02 %ID/g
COc1cc2nc(C3(C)CC3)nc(N3CCC(c4ccccc4OC)CC3)c2cc1OC,NTSR1,"G protein activation, antagonist",,,,IC50,1.48 µM
CN1CCCNC(=O)c2cccc(c2)C(=O)NCCCN(C)CCCNc2cccc3c2C(=O)c2cccc(c2C3=O)NCCC1,SAS,"RNA-Seq, item: LUC7L mRNA",,"1 µM, 6 h",reference: untreated cells,log2 fold change,0.574
CN(c1ccccc1)c1nc(NC2CCCCC2)c2ccccc2n1,ADRB2,"β-arrestin recruitment, antagonist",,,,IC50,> 50 µM
COc1ccc(-c2ccc(C(=O)N(C)CCO)cc2)c(OC)c1,DNA dC->dU-editing enzyme APOBEC-3B C-terminal domain,"deaminase activity, inhibitor, UDG-coupled deamination",,,,IC50,979 ± 49 µM
Cc1cc(NC2CCN(C)CC2)ccc1-c1cc2c(N3CCC[C@H](C(=O)NCc4ccc(OC(F)(F)F)cc4)C3)ncnc2[nH]1,"Serine/threonine-protein kinase Nek2 (NEK2, Homo sapiens, UniProt P51955)","enzyme activity, inhibitor, mobility shift",,,,IC50,> 8 µM
COC(=O)Cc1cc2c(cc1C(=O)c1ccc(Cl)cc1Cl)OCO2,Gria1,"ion current, patch clamp",,,,IC50,4.98 µM
O=c1c(-c2cnn(-c3ccc(Cl)cc3)c2)c(C(F)(F)F)oc2c(O)c(O)ccc12,"Cullin-4A (CUL4A, Homo sapiens, UniProt Q13619)","enzyme activity, inhibitor, fluorescence",,,,IC50,9.3 µM
OCC1CCCN(CCNc2cc(-c3ccccc3)nc3ccnn23)C1 (centres unmarked),"DNA dC->dU-editing enzyme APOBEC-3B (Homo sapiens, UniProt Q9UH17)","enzyme activity, inhibitor, HPLC",,,,IC50,108 µM
Cc1cc(O)c2c(c1)C(=O)c1cc(O)c(O)c(O)c1C2=O,MAOB,"enzyme activity, inhibitor",,,,IC50,59.1 µM
O=C1CC(c2ccccc2)N1S(=O)(=O)c1ccc(Cl)cc1 (centres unmarked),"Rhomboid protease GlpG (glpG, Escherichia coli, UniProt P09391)","enzyme activity, inhibitor",,,,IC50,5 µM
CC(C)[C@H](NC(=O)[C@@H]1CSSC(C)(C)[C@H](NC(=O)[C@@H](N)CC(=O)O)C(=O)N[C@@H](Cc2ccccc2)C(=O)N[C@H](Cc2c[nH]c3ccccc23)C(=O)N[C@@H](CCCN)C(=O)N[C@@H](Cc2ccc(O)cc2)C(=O)N1)C(=O)O,"Urotensin-2 receptor (UTS2R, Homo sapiens, UniProt Q9UKP6)","Gi1 activation, agonist, BRET2",HEK293,,,EC50,0.0138 µM
CN(C)c1nc(NCc2cccc3ccccc23)c(/N=N/c2ccc(Cl)cc2)c(N(C)C)n1,"Chitinase (OfChi-h, Ostrinia furnacalis, UniProt Q4AE59)","enzyme activity, inhibitor, fluorescence",,,,IC50,0.32 µM
COc1cccc2[nH]c(-c3ccccn3)nc12,"Core-binding factor subunit beta, with RUNX1 Runt domain (Homo sapiens, UniProt Q13951)","Runt domain binding, inhibitor, FRET",,,,IC50,> 34 µM
O=C(NCCCN1CCC2(CC1)OCc1ccccc12)C1CCCN1Cc1ccccc1 (centres unmarked),"Nociceptin receptor (OPRL1, Homo sapiens, UniProt P41146)",,,,,Ki,0.0032 µM
Cc1nn(-c2cccc(N)c2)c(=O)c2cnc(Nc3ccc(N4CCNCC4)cc3)nc12,"MAP/microtubule affinity-regulating kinase 3 (MARK3, Homo sapiens, UniProt P27448)","kinase activity, inhibitor, SelectScreen kinase profiling",,,,IC50,> 10 µM
Clc1ccccc1C1=Nn2c(nnc2C2CCCCC2)SC1,ppa,"enzyme activity, inhibitor",,,,IC50,> 100 µM
CC(C)c1ccc(/C=C/C(=O)c2c[nH]c3ccccc23)cc1,MAOB,"enzyme activity, inhibitor",,,,IC50,0.481 µM
Cc1ncsc1-c1ccc(C(C)NC(=O)C2CC(O)CN2C(=O)C(NC(=O)CCCCCCCCCCN2CCCC(Nc3ncc(Cl)c(Nc4ccccc4S(=O)(=O)C(C)C)n3)C2)C(C)(C)C)cc1 (centres unmarked),22Rv1,"RNA-seq, item: RAB36 mRNA",,concentration not given,reference: DMSO,log2 fold change,-2.04
Cc1nc(N)nc2c1C(=O)N[C@@H](c1ccc(F)cc1-c1cccc(OCC[18F])n1)C2,,"binding, radioligand competition",mouse brain homogenate,together with: [3H]HSP990 0.6 nM,,Ki,~0.2 µM
Cc1ccc2c(c1)C(O)(CC(=O)c1ccc3c(c1)OCCO3)C(=O)N2 (centres unmarked),Uncharacterized protein,"inhibitor, coupled colorimetric",Trypanosoma brucei,,,IC50,> 100 µM
COc1ccc(C(N)=O)cn1,NNMT,"enzyme activity, inhibitor",,,,IC50,2.51 µM
CCC(NC(=O)c1cccc(-c2ccc(C)nc2N)c1)c1ccnn1C (centres unmarked),DNA dC->dU-editing enzyme APOBEC-3B C-terminal domain,"deaminase activity, inhibitor, UDG-coupled deamination",,,,IC50,754 ± 34 µM
COc1cccc2c(=O)c(CO)coc12,NNMT,"enzyme activity, inhibitor",,,,IC50,3.98 µM
FC(F)(F)c1cccc(Nc2nc(NC3CCCCC3)c3ccccc3n2)c1,ADRB2,"cAMP production, antagonist, GloSensor",,together with: isoproterenol 1 µM,,IC50,9 ± 3 µM

# For quick reference, copied from above:
Structure (SMILES),tested on,test,system,setting,how to read,measurement,value
CN(C)c1cc(N)c2cc(Cl)ccc2n1,Uncharacterized protein,"enzyme activity, inhibitor, coupled colorimetric",,together with: E. coli pyrophosphatase coupling,,IC50,43.8 µM
Nc1ncc(-c2cc(-c3cnn(CC(F)(F)F)c3)ncc2F)nc1C(=O)NC1CNCC(F)C1 (centres unmarked),MKNK2,KINOMEscan,,1 µM,reference: control,remaining binding,7.7%
CCC(NC(=O)c1cccc(-c2ccc(C)nc2N)c1)c1ccnn1C (centres unmarked),DNA dC->dU-editing enzyme APOBEC-3B C-terminal domain,"deaminase activity, inhibitor, UDG-coupled deamination",,,,IC50,754 ± 34 µM
